Measured values gathered from unrelated publications.
± marks the error that the study gave.
Chain of UniProt P22736 (whole entry, looked up): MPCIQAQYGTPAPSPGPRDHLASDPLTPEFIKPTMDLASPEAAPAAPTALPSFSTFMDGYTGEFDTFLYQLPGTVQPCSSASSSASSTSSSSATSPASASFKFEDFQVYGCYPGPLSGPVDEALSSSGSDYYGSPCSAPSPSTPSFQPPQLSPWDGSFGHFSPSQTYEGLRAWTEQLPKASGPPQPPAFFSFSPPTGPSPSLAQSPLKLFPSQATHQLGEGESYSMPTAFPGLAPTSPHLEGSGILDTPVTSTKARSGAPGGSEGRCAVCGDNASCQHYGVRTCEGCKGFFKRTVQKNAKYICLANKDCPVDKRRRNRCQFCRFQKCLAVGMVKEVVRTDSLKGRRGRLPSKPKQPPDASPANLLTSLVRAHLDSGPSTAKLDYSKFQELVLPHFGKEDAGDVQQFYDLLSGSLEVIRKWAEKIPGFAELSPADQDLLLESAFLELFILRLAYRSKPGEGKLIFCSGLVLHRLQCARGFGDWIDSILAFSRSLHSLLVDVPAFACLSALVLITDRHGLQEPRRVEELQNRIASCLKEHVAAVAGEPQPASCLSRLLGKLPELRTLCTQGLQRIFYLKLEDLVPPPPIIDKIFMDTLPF
Chain of UniProt Q9UGN5 (whole entry, looked up): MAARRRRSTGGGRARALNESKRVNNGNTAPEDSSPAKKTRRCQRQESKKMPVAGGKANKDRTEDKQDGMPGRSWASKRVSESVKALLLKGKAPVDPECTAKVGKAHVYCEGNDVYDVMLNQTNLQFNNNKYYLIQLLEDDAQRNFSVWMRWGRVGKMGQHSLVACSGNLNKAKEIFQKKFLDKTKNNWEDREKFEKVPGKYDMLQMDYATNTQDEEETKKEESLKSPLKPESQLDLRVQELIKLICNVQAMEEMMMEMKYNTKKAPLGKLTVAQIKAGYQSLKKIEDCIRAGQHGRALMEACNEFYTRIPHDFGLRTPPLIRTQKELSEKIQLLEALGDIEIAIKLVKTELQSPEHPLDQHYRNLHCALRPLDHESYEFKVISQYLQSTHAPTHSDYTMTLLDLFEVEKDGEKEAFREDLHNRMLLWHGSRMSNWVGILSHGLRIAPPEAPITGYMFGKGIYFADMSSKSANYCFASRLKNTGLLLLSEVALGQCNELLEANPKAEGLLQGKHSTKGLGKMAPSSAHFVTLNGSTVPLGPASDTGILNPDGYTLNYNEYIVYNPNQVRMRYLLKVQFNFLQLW
Chain of UniProt Q9UBL9 (whole entry, unmodified, looked up): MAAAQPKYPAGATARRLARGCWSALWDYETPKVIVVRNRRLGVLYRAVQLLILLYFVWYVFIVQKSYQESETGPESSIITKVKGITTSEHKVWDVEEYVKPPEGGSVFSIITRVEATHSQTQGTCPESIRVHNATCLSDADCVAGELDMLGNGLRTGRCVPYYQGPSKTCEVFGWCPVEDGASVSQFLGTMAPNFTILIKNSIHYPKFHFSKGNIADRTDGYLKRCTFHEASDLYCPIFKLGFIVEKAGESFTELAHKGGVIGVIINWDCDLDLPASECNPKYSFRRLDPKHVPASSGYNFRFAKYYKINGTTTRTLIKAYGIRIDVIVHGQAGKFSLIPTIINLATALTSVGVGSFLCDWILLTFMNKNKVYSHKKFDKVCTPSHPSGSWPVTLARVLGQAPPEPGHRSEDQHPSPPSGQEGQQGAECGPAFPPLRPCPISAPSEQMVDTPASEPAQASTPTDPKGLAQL
Chain of UniProt Q9UQD0 (whole entry, looked up): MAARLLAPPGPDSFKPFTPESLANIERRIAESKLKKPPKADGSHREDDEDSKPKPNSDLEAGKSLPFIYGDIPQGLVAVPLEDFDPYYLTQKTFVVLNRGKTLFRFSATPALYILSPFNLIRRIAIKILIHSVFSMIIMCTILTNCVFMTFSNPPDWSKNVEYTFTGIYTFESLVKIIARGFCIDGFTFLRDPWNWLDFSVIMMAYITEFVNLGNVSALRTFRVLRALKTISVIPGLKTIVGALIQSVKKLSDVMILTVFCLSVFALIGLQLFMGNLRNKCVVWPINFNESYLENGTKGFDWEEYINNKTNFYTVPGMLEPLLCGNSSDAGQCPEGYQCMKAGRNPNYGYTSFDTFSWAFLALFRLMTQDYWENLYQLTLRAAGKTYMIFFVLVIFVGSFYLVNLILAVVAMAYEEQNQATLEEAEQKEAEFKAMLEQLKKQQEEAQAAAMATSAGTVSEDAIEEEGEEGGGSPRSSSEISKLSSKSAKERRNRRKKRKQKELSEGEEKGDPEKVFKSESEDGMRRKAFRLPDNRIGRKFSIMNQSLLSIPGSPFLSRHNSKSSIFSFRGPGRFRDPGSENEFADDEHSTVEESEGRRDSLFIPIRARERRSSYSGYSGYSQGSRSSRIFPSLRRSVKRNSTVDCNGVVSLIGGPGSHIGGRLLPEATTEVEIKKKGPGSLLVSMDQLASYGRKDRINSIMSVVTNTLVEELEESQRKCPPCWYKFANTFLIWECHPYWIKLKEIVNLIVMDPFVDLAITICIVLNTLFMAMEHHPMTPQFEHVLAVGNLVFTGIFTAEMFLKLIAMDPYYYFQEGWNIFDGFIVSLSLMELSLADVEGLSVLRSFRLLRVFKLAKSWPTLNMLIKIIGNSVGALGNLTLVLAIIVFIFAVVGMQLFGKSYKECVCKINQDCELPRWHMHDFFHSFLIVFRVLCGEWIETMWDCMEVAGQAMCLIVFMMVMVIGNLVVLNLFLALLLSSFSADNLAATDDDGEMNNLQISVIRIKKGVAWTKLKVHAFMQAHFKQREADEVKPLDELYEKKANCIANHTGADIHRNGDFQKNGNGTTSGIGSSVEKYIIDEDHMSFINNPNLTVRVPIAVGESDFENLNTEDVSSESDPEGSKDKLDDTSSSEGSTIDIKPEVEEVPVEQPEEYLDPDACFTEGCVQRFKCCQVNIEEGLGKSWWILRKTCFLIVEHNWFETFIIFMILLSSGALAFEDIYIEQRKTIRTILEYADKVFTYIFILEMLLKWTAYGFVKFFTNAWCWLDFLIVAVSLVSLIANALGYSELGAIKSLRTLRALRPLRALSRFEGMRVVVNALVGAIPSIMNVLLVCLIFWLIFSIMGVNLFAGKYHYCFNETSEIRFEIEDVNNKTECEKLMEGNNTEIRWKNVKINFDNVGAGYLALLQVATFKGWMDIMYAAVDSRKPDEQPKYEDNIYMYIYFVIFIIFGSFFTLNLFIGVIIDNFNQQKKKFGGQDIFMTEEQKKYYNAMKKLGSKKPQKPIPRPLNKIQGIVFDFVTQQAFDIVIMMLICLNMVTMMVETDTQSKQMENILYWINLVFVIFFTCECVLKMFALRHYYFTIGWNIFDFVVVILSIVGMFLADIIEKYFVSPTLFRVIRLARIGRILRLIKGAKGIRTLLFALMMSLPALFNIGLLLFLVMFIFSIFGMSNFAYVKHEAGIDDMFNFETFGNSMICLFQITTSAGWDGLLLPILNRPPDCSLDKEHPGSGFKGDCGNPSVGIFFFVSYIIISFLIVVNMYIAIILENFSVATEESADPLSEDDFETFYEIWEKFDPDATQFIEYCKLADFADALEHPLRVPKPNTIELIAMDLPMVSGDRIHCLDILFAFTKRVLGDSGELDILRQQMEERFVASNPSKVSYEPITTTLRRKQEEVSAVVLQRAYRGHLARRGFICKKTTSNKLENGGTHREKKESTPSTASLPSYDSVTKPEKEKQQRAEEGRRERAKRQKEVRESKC
Chain of UniProt Q969H0 (whole entry, looked up): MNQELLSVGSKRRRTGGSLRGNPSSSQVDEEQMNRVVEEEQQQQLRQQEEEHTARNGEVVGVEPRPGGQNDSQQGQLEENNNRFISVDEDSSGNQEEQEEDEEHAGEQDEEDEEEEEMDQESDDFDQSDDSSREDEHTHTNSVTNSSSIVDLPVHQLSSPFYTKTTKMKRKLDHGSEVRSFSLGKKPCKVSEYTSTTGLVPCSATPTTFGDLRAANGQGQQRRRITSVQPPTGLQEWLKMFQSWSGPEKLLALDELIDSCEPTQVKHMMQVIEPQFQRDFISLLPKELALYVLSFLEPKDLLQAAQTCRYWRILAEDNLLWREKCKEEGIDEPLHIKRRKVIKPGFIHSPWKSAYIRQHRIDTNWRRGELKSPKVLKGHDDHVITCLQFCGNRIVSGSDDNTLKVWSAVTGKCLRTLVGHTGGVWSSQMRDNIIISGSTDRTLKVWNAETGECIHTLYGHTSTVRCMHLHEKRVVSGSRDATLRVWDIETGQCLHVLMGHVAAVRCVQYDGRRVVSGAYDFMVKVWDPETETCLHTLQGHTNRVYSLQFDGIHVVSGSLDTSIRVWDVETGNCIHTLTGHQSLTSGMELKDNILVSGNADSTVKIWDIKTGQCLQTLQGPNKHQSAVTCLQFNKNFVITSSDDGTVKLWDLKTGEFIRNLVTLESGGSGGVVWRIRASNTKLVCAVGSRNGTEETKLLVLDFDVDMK
Chain of UniProt P00441 (whole entry, unmodified, looked up): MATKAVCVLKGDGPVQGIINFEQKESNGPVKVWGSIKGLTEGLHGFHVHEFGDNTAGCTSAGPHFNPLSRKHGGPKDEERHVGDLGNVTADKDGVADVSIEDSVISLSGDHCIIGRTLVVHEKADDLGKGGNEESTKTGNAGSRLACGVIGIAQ
Chain of UniProt P40073 (whole entry, looked up): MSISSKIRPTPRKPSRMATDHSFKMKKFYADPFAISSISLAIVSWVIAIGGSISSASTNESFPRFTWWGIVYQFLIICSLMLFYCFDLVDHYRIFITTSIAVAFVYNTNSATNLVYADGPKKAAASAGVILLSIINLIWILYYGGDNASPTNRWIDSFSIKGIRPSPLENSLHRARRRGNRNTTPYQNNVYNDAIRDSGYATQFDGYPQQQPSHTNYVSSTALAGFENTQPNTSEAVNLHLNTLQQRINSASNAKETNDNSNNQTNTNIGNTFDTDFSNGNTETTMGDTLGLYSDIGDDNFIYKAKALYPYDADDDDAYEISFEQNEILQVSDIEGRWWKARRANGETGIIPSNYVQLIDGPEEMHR

SMILES	target	assay	system	conditions	how to read	quantity	result
NC(=O)c1ccc[n+]([C@@H]2O[C@H](COP(=O)([O-])OP(=O)(O)OC[C@H]3O[C@@H](n4cnc5c(NCCNC(=O)CCCCCNC(=O)CCCCCNC(=O)CCCC[C@@H]6SC[C@@H]7NC(=O)N[C@@H]76)ncnc54)[C@H](O)[C@@H]3O)[C@@H](O)[C@H]2O)c1	Poly [ADP-ribose] polymerase 2 (PARP2, Homo sapiens, UniProt Q9UGN5)	substrate, DELFIA auto-modification	–	–	–	apparent Km	5 µM
CC(=O)N[C@H](C(=O)N[C@@H](CC(N)=O)C(=O)N[C@@H](CCCCN)C(=O)N1CCC[C@H]1C(=O)N[C@@H](CC(C)C)C(=O)N1CCC[C@H]1C(=O)N1CCC[C@H]1C(=O)N[C@@H](CC(C)C)C(=O)N1CCC[C@H]1C(=O)N[C@H](C(=O)N[C@@H](C)C(N)=O)C(C)C)C(C)C	High osmolarity signaling protein SHO1, SH3 domain (SHO1, Saccharomyces cerevisiae, UniProt P40073)	binding, isothermal titration calorimetry	50 mM sodium phosphate, 100 mM NaCl	concentration not given, pH 7.0, 25 °C	–	enthalpy change	-28.2 ± 0.2 kJ/mol
c1coc(-c2n[nH]cc2-c2ccnc3ccccc23)c1	Mitosis inhibitor protein kinase SWE1 (SWE1, Candida albicans, UniProt Q5AP97)	kinase binding, MIB/MS competition	Candida albicans lysate	1 µM	reference: DMSO, negative = stronger binding	log2 fold change	-0.12
Nc1ncnc2c1ncn2[C@@H]1O[C@H](COP(=O)(O)OP(=O)(O)OP(=O)(O)O)[C@@H](O)[C@H]1O	P2X purinoceptor 2 (P2RX2, Homo sapiens, UniProt Q9UBL9, R130E)	channel activation, agonist	transfected HEK293 cells	physiological divalent cations, added: 2 mM Ca2+ and 0.5 mM Mg2+	–	Hill coefficient	1.4 ± 0.2
Nc1ncnc2c1ncn2[C@@H]1O[C@H](COP(=O)(O)OP(=O)(O)O)[C@@H](O)[C@H]1O	Creatine kinase U-type, mitochondrial (CKMT1A, Homo sapiens, UniProt P12532, H99A)	substrate, Kinase-Glo luminescence	–	pH 7.0, reverse reaction, H61A mutant, added: second substrate in excess	–	kcat	28 ± 1 s⁻¹
CCCCCCCCOC(=O)NS(=O)(=O)Nc1ccc(-c2cc3ccccc3[nH]2)cc1OC	Polyunsaturated fatty acid lipoxygenase ALOX15 (Oryctolagus cuniculus, UniProt P12530)	–	–	30 µM, added: arachidonic acid	–	kcat	1.25 ± 0.21 s⁻¹
Cc1nc(CSc2nc(-c3ccc(C(C)(C)C)cc3)n[nH]2)cs1	Sodium channel protein type 8 subunit alpha, C-terminal domain (SCN8A, Homo sapiens, UniProt Q9UQD0)	binder, thermal shift	–	25 µM	–	delta Tm	0.3 °C
CC1(C)CC2(C)OC(=O)NC2(C)c2ccccc21 (stereo not drawn)	FBXW7 (Homo sapiens, UniProt Q969H0)	binding, affinity selection mass spectrometry	–	–	reference: other proteins in batch	log fold enrichment	-0.00682
[O-][S+]1CCCCS1 (stereo not drawn)	Superoxide dismutase [Cu-Zn] (SOD1, Homo sapiens, UniProt P00441, G94A)	LC-MS	brain homogenate	500 µM, 1 h, 37 °C	–	SOD1 dimer fraction	83.5%
Cc1cc2c(cc1N1C(=O)c3cccc4c(Cl)ccc(c34)C1=O)n(C)c(=O)n2C	Protein polybromo-1, bromodomain 4 (PBRM1, Homo sapiens, UniProt Q86U86)	binding, thermal shift	–	10 µM	higher = stronger binding	thermal shift	-0.3 °C
CC[C@H](C)C(=O)O[C@H]1C[C@H](O)C=C2C=C[C@H](C)[C@H](CC[C@@H](O)C[C@@H](O)CC(=O)O)[C@H]21	Nuclear receptor subfamily 4 group A member 1 (NR4A1, Homo sapiens, UniProt P22736)	reporter gene, Gal4 hybrid reporter	–	10 µM	reference: vehicle	activation	0.91 fold
O=C(CCCc1ccccc1)C(=O)NCCc1ccc(Oc2ccc(C(F)(F)F)cn2)cc1	Prolyl endopeptidase (Mus musculus, UniProt Q9QUR6)	inhibitor, item: PPCE	mouse, WAT cytosol proteome	10 µM	reference: DMSO, lower = stronger inhibition	probe-enriched protein abundance	268000 a.u.

Repeated from above:
SMILES	target	assay	system	conditions	how to read	quantity	result
[O-][S+]1CCCCS1 (stereo not drawn)	Superoxide dismutase [Cu-Zn] (SOD1, Homo sapiens, UniProt P00441, G94A)	LC-MS	brain homogenate	500 µM, 1 h, 37 °C	–	SOD1 dimer fraction	83.5%
